# Literature values as cited in several papers.
# Each line is one published result; not all experiments were run side by side. ± gives the spread as reported.
# Sequence of UniProt Q9BRS2 (whole entry, looked up): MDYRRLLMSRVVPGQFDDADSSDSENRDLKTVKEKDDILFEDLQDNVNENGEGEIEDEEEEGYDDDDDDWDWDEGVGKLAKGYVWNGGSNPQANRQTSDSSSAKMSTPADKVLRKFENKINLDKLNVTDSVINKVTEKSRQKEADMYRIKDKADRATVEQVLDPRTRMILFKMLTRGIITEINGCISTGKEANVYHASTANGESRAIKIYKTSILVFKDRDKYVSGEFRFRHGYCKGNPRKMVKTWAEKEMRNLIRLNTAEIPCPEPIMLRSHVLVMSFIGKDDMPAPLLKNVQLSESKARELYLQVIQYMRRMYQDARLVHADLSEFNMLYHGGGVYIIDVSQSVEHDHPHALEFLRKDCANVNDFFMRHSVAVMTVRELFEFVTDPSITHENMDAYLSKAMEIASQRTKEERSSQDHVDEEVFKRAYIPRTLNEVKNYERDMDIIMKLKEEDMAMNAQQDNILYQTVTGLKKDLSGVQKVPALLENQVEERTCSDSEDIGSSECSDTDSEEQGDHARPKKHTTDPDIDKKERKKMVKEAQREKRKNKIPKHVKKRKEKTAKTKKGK
Structure (SMILES),target or system,assay,system,conditions,scale,measurement,value
Nc1cc(C(F)(F)F)c(-c2nc(N3CCOCC3)nc(N3CCOCC3)n2)cn1,"RIOK1 (Homo sapiens, UniProt Q9BRS2)",enzyme activity,,10 µM,relative to: untreated,remaining activity,97%
Cc1nc(NC(=O)N2CCC[C@H]2C(N)=O)sc1-c1ccnc(C(C)(C)C(F)(F)F)c1,,,"MCF7, mouse, MCF7 orthotopic xenograft","20 mg/kg once daily, day 62, single agent",,%T/C,38%
CC(C)(C)c1cc(C(C)(C)C)c(NC(=O)c2c[nH]c3ccccc3c2=O)cc1O,,sweat chloride reduction,human cystic fibrosis patients,clinical exposure-response,,EC50,0.048 µg/mL
COC[C@@H](c1ccc(C(F)(F)F)cc1)N1CCN(C2(C)CCN(C(=O)c3c(C)ncnc3C)CC2)C[C@@H]1C,,,"human, treatment-experienced HIV infected",associated with favourable outcome,,target trough concentration,> 100 ng/mL
CCc1cc2c(cc1CC)CC(NC[C@H](O)c1ccc(O)c3[nH]c(=O)ccc13)C2,,,COPD patients,"inhaled, 300 µg once daily, 24 h postdose, dosing day 1",relative to: baseline,placebo-corrected trough FEV1 change,140 mL
CNC[C@H](O)[C@@H](O)[C@H](O)[C@H](O)CO.O=C([O-])CN1CCN(CC(=O)[O-])CCN(CC(=O)O)CCN(CC(=O)[O-])CC1.[Gd+3],,,human plasma,"310 K, 0.47 T",,relaxivity r1,4.5 mM⁻¹ s⁻¹
CCC(C)c1nccnc1OC (centres unmarked),,,"human, water",,,odour detection threshold,0.003 µg/kg
COc1cccc2c1C(=O)c1c(O)c3c(c(O)c1C2=O)C[C@@](O)(C(=O)CO)C[C@@H]3O[C@H]1C[C@H](N)[C@H](O)[C@H](C)O1,,,human epithelioid sarcoma patients,dose not given,,median duration of response,< 2 months
O=C(CCCCCCc1ccccc1)c1ncc(-c2ccccn2)o1,,"refers to: AEA, OEA, PEA",mouse,"50 mg/kg, maximum 1 h",,duration of lipid amide increase,1 h
Cn1c(=O)oc2ccc(-c3ccc(C[C@@H](C#N)NC(=O)[C@@H]4CNCCCO4)cc3)cc21,,,"human patients, trial",dose not given,relative to: placebo,pulmonary exacerbations,decreased
OCc1cn(Cc2cccc(Cl)c2)c2ccccc12,,,"lung tumour model, lung tumour",concentration not given,,p-STAT3 in lung tumours,decreased
CC1(C)CCC(CN2CCN(c3ccc(C(=O)NS(=O)(=O)c4ccc(NCC5CCOCC5)c([N+](=O)[O-])c4)c(Oc4cnc5[nH]ccc5c4)c3)CC2)=C(c2ccc(Cl)cc2)C1,,,"human, newly diagnosed AML","concentration not given, together with: decitabine",,complete remission rate,54%
COC(=O)C1=C(C)NC(C)=C(C(=O)OC)C1c1c(C(F)(F)F)nc2sc(C)cn12,,calcium-induced contraction,guinea pig aortic strip,"50 µM, together with: K+ 80 mM depolarisation",,inhibition,28 ± 1.5%
N#Cc1ccc(C(c2ccc(C#N)cc2)n2cncn2)cc1,,,rat C6 glioma model,"dose not given, daily dosing",,survival time,60 days
COc1cc2c(Oc3ccc4[nH]c(C)cc4c3F)ccnc2cc1OCC1(N)CC1,,,metastatic soft tissue sarcoma patients,dose not given,relative to: placebo,reduction in progression risk,67%
Cc1cnccn1,,,"human, water",,,odour detection threshold,60000 µg/kg
CC(=O)Oc1ccc(C(c2ccc(OC(C)=O)cc2)c2ccccn2)cc1,,"mitochondrial membrane potential disruption, Tox21 HTS",,,,AC50,8.7 µM
CNC(C)C1CCC(N)C(OC2C(N)CC(N)C(OC3OCC(C)(O)C(NC)C3O)C2O)O1 (centres unmarked),Enterobacter cloacae,,clinical isolate RKI-No_733/14,,,MIC,> 8 µg/mL
COc1cc(NC(=O)CCN2CCC(OC(=O)Nc3ccccc3-c3ccccc3)CC2)c(Cl)cc1CNC[C@H](O)c1ccc(O)c2[nH]c(=O)ccc12,,,COPD patients,"inhaled, 100 µg twice daily, 12 h postdose, dosing day 1",relative to: baseline,placebo-corrected trough FEV1 change,92 mL
Nc1ccn([C@@H]2CS[C@H](CO)O2)c(=O)n1,,,chronic hepatitis B patients,"dose not given, 12 months, together with: entecavir",relative to: baseline,HBsAg reduction,0.08 log10 IU/mL
COCCCOc1ccnc(C[S+]([O-])c2nc3ccccc3[nH]2)c1C (centres unmarked),,gastric acid secretion,human,concentration not given,,onset of antisecretory effect,≤ 1 h
CC(C)(O/N=C(\C(=O)N[C@@H]1C(=O)N2C(C(=O)[O-])=C(C[n+]3ccccc3)CS[C@H]12)c1csc(N)n1)C(=O)O,Escherichia coli,,clinical isolate RKI-No_592/16,,,MIC,≤ 2 µg/mL
COc1cc2c(Nc3ccc(Cl)c(Cl)c3F)ncnc2cc1OC[C@@H]1C[C@@H]2CN(C)C[C@@H]2C1,,,"treatment-naive patients, advanced EGFR-mutant NSCLC","dose not given, phase II trial",,progression-free survival,9.3 months

# Some of these lines once more:
Structure (SMILES),target or system,assay,system,conditions,scale,measurement,value
COc1cc2c(Nc3ccc(Cl)c(Cl)c3F)ncnc2cc1OC[C@@H]1C[C@@H]2CN(C)C[C@@H]2C1,,,"treatment-naive patients, advanced EGFR-mutant NSCLC","dose not given, phase II trial",,progression-free survival,9.3 months
